Measured values gathered from unrelated publications.
A part holds a random share of what one study measured.

Sample 1
Target: Centromere-binding protein 1, full length, His-tagged (CBF1, Saccharomyces cerevisiae, UniProt P17106, residues 1-351)
Chain of UniProt P17106 (whole entry, looked up): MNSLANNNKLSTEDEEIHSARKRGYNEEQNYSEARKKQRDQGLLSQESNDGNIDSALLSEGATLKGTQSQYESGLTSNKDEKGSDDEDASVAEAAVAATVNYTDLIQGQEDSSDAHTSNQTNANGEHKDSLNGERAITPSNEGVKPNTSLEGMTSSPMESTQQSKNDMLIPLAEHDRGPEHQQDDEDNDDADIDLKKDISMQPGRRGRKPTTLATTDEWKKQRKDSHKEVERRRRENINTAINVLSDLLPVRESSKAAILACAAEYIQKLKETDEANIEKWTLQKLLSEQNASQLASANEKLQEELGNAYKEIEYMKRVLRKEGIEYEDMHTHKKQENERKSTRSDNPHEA
Method: competition protein-binding microarray
Form: double-stranded DNA, one strand shown
Matrix: in vitro
Concentration: 2 µM
Notes: whole 60-bp probe, lowest competitor level
Added: Pho4 competitor, 0.05 µM
Direction: higher = stronger binding
Endpoint: fluorescence intensity
CGGGGTTAAGTTTGTCACTTGACTTGCTTGCAGCAGGTCTTGATTCGCTTGACGCTGCTG: 123 a.u.
AAAGCGGTAATTTGGCCGGTGGGTGCAGATATCTATGTCTTGATTCGCTTGACGCTGCTG: 72.1 a.u.
ATCTGGGATTGAAGACACATGAGTTTTTTTCTCACCGTCTTGATTCGCTTGACGCTGCTG: 104 a.u.
CGCGGCTCTTGGCAGCACGAGGTGGTTTCACTGCAGGTCTTGATTCGCTTGACGCTGCTG: 115 a.u.

Sample 2
Target: Fragile X messenger ribonucleoprotein 1, C-terminal low-complexity region (Fmr1, Mus musculus, UniProt P35922)
Method: RNA Bind-n-Seq
Form: RNA
Matrix: in vitro
Concentration: 200 nM
Notes: whole 134-nt RNA, ends assumed
Added: 150 mM LiCl
Reference: input library
Direction: higher = stronger binding
Endpoint: log2 enrichment
Each molecule: 7-deaza-guanosine replaces G
Constant ends, left off below: GGGAGUUCUACAGUCCGACGAUC … UGGAAUUCUCGGGUGUCAAGG
ACCAUGCAGGUGGGCAUCUUUGGGAAGUGGGGCAAGGGGGCGAUAGGGAGGGGGGUAACACUUUGGGAACAGGUGGUCCCAGGUCGUUUC: 0.517
AAGUCCUGUGCUACACAUCGUAUGUACCGAAUCGGGGUUUGGGGUUUGGGGUUUGGGAAAGUAUUAUGUUACGCCGUUCGGAUCUGCACU: -1.39
AAGUCCUGUGCUACACAUCGUAUGUACCGAAUCGGAAAAAGGUUUUUGGAAAAAGGAAAGUAUUAUGUUACGCCGUUCGGAUCUGCACUU: -2.21
CCUCAAGUCCUGUGCUACACAUCGUAUGUACCGAAUCGGGAGGAGGGAGGGGAAAGUAUUAUGUUACGCCGUUCGGAUCUGCACUUCCAG: -0.711
GUCCUGUGCUACACAUCGUAUGUACCGAAUCGGGCCCCCGGGGCCCCCGGGCCCCCGGAAAGUAUUAUGUUACGCCGUUCGGAUCUGCAC: 0.249

Sample 3
Target: Histone acetyltransferase KAT6A, winged helix 2, GST fusion (KAT6A, Homo sapiens, UniProt Q92794, residues 85-181)
Method: protein binding microarray
Form: double-stranded DNA, one strand shown
Matrix: in vitro
Concentration: not given
Notes: 8-mer, flanks averaged, mean of 2 arrays, mostly near background
Reference: not given
Direction: higher = stronger binding
Endpoint: E-score
Target sequence (chain): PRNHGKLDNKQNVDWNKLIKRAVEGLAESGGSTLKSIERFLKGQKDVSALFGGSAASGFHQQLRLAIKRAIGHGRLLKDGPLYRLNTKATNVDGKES
CCTTATCA: -0.0308
ACAGACAG: 0.0118
GATTTTAC: -0.0163
AAATGGTG: 0.0288
CCCAGCCC: 0.116

Further values, each from its own experiment
PhoQ, residues 284 288 289 292 302 303 TAVSDG — fold induction (PhoP, residues 12 14 15 18 19 YHFSH (Escherichia coli, UniProt P23836); Sort-seq, item: YFP reporter; E. coli; PhoQ-PhoP variant library, added: 10 µM Mg2+; reference: high Mg2+ state, higher = stronger signaling): 1.28
